Measurements pooled from the literature.
Values joined by “and” are separate records of one study, mostly repeats; a detail may differ. ± marks the error that the study gave.

`C[C@@H](Oc1ccc(S(C)(=O)=O)cc1C(=O)N1C[C@@H]2C[C@]2(c2cc(C(F)(F)F)on2)C1)C(F)(F)F`: “fraction excreted in urine at steady state” 7.06% (young healthy humans, urine; oral, 10 mg once daily, 0 to 24 h, multiple dosing).
Under “lymph node sequestered fraction”, `CC(C)c1nc(CN(C)C(=O)N[C@H](C(=O)N[C@@H](Cc2ccccc2)C[C@H](O)[C@H](Cc2ccccc2)NC(=O)OCc2cncs2)C(C)C)cs1` is recorded as 0.65 (Macaca nemestrina; subcutaneous, medium pathway, TLC-ART).
For `O=C(c1nc2n(n1)[C@H](c1ccccc1)C[C@@H]2F)C1CC1`, “fraction excreted in urine 0-72 h” read 0.1 to 0.3% (human; 5 mg single dose).
For `CCn1cc(C(=O)N2CCOCC2)c(=O)c2cc(NC3Cc4ccccc4C3)cnc21`, the AUC(0-last) was 26400 ng·h/mL (human, fasted, plasma; oral, 900 mg single dose, tablet, arithmetic mean).
For `CCCCCc1ccc(C(=O)Oc2ccc(C#N)c(F)c2)cc1`, the concentration was 0.18 ng/mL (refers to: compound; human pregnant women, female fetuses, maternal serum; dose not given, paired maternal-cord samples, mean).
`NC[C@@]1(CC(=O)O)[C@@H]2CC[C@H]3C[C@@H]2[C@@H]1C3` gave an unbound AUC(0-inf) of 3510 ng·h/mL (human, moderate renal impairment, plasma; dose not given, geometric mean).
`Cn1ncc(S(=O)(=O)NCc2ccccc2SC(F)(F)F)c1C(=O)O`: “DLS scattered light intensity” 1.41e+06 counts/s (colloidal aggregate formation, dynamic light scattering; 50 mM potassium phosphate buffer; 200 µM, pH 7.0, 1% DMSO; higher = more aggregation).
With `O=C(O)CCC(=O)O.[2H]C([2H])([2H])Oc1cc(C)c2[nH]ccc2c1CN1CC[C@@H](C2CC2)C[C@H]1c1ccc(C(=O)O)cc1` the Tmax was 4 h (human, plasma; 125 mg twice daily, day 1, multiple ascending dose, median).
For `COc1ccc(C(=O)O)cc1NC(=O)/C=C/c1ccc(-c2ccccc2C)cc1`, the HC50 was over 128 µg/mL (haemolysis; sheep erythrocytes; 1 h, pH 7.5).
For `Cc1cc(Nc2ccc(S(F)(F)(F)(F)F)cc2)n2nc(C(C)(F)F)nc2n1`, “adverse event Fatigue” read 0% (Plasmodium vivax malaria patients; oral, 800 mg).
`O=S(=O)(NCC1Cc2cc(Br)ccc2O1)c1cccc(Cl)c1O` (stereo not shown): “DLS scattered light intensity” 432000 counts/s (colloidal aggregate formation, dynamic light scattering; 50 mM potassium phosphate buffer; 200 µM, pH 7.0, 1% DMSO; higher = more aggregation).
`COc1ccc(F)cc1C(=O)NCc1ccc(-c2nn([C@@H](C)C(F)(F)F)c(N)c2C(N)=O)cc1`: “unchanged drug excreted” 7.4% (healthy men, urine; intravenous, 22 µg; baseline: dose).
`CNC(=O)c1ccc(-c2cnc3ncc(Cc4ccc5ncccc5c4)n3n2)cc1F`: “adverse event incidence” 0% (phase 1 clinical trial, refers to: blood creatinine increased; dose escalation cohort; oral, dose not given, grade 3 or 4).
With `Cc1cccc(Cn2cc(CO)c3cnccc32)c1` the GGT was 0 U/L and 2 U/L (F344 rat, male, serum; oral, 100 mg/kg/day, 2 days).
For `CC(CNS(=O)(=O)c1cnn(C)c1C(=O)O)c1c(Cl)cccc1Cl` (stereo not shown), “DLS scattered light intensity” read 509000 counts/s (colloidal aggregate formation, dynamic light scattering; 50 mM potassium phosphate buffer; 200 µM, pH 7.0, 1% DMSO; higher = more aggregation).
For `O=C(Nc1nc2cccc(-c3ccc(CN4CCS(=O)(=O)CC4)cc3)n2n1)C1CC1`, “treatment-emergent adverse events” read 0% (refers to: hypertension; human rheumatoid arthritis patients; oral, 200 mg once daily, 4 weeks, regardless of relatedness).
`CC(=O)N(C)[C@H]1CCN(C(=O)c2cnc3c(c2)C[C@](C)(c2ccc(F)cc2)N3)C1` — result for “duration of detectable plasma levels”: about 5 days (male humans, plasma; oral, dose not given, multiple dosing).
`COc1cc2c(cc1OC)C(=O)C(CC1CCN(Cc3ccccc3)CC1)C2` (stereo not shown) gave a PEF of -0.286 L/s (spirometry; human subjects; dose not given; baseline: placebo).
`CCN1CCN(Cc2ccc(NC(=O)c3ccc(C)c(NC(=O)c4cncc(-c5cccs5)c4)c3)cc2C(F)(F)F)CC1` gave a plasma concentration of 0.088 µg/mL and 0.197 µg/mL and 0.131 µg/mL (LC-MS/MS; C57BL/6 mouse, plasma; intraperitoneal, 20 mg/kg single dose, 6 h).
`Cc1cc(-c2nccc3c2ccn3CC(=O)Nc2ccc(-c3cnccn3)cn2)ccn1`: “subjects with coronavirus infection” 0% (human; 5 mg once daily, multiple ascending dose).
Under “alanine aminotransferase increased”, `O=C(Nc1cnccc1Cl)N1CCN(Cc2ccc3c(c2)OC(F)(F)O3)CC1` is recorded as 33.3% (multiple ascending dose; young men; 10 mg, treatment-emergent adverse events).
`CCn1c(=O)c(-c2cc(NC(=O)Nc3ccccc3)c(F)cc2Br)cc2cnc(NC)cc21`: “participants with grade ≥ 3 TEAE” 0% (refers to: accidental overdose; healthy human, matched to severe hepatic impairment; oral, 50 mg single dose).
Under “systolic blood pressure”, `CCN1/C(=C/C(C)=O)Sc2ccc(F)cc21` is recorded as 112 ± 6 mmHg (cynomolgus monkey; oral, 10 mg/kg, 0.5 h post-dose).
`C=CC(=O)Nc1cc(Nc2ncc(C(=O)OC(C)C)c(-c3cn(C)c4ccccc34)n2)c(OC)cc1N(C)CCN(C)C` — result for “fraction of dose excreted”: 0.93% (healthy human, urine; oral, 20 mg single dose, arithmetic mean).
For `CC[C@H](C)[C@H](NC(=O)[C@H](Cc1ccccc1)NC(=O)[C@H](CCC(=O)O)NC(=O)[C@H](CCCCNC(=O)COCCOCCNC(=O)COCCOCCNC(=O)CC[C@H](NC(=O)CCCCCCCCCCCCCCCCC(=O)O)C(=O)O)NC(=O)[C@H](C)NC(=O)[C@H](C)NC(=O)[C@H](CCC(N)=O)NC(=O)CNC(=O)[C@H](CCC(=O)O)NC(=O)[C@H](CC(C)C)NC(=O)[C@H](Cc1ccc(O)cc1)NC(=O)[C@H](CO)NC(=O)[C@H](CO)NC(=O)[C@@H](NC(=O)[C@H](CC(=O)O)NC(=O)[C@H](CO)NC(=O)[C@@H](NC(=O)[C@H](Cc1ccccc1)NC(=O)[C@@H](NC(=O)CNC(=O)[C@H](CCC(=O)O)NC(=O)C(C)(C)NC(=O)[C@@H](N)Cc1cnc[nH]1)[C@@H](C)O)[C@@H](C)O)C(C)C)C(=O)N[C@@H](C)C(=O)N[C@@H](Cc1c[nH]c2ccccc12)C(=O)N[C@@H](CC(C)C)C(=O)N[C@H](C(=O)N[C@@H](CCCNC(=N)N)C(=O)NCC(=O)N[C@@H](CCCNC(=N)N)C(=O)NCC(=O)O)C(C)C`, “placebo-subtracted change in QTcI” read -5.6 ms (QT interval corrected for heart rate, 12-lead Holter ECG; healthy human subjects; subcutaneous, 1.5 mg once weekly, 27 h post-dose, steady state; baseline: placebo, time-matched baseline).
`C[C@H]1CN(C(=O)CC#N)[C@]12CCN(c1ncnc3[nH]ccc13)C2` gave a Cmax of 619 ng/mL (healthy Japanese males, plasma; oral, 50 mg single dose).
For `Cc1cc(F)c(NS(=O)(=O)c2cc(Cl)cc(Cl)c2O)cc1[N+](=O)[O-]`, “DLS scattered light intensity” read 1.56e+07 counts/s (colloidal aggregate formation, dynamic light scattering; 50 mM potassium phosphate buffer; 200 µM, pH 7.0, 1% DMSO; higher = more aggregation).
`COc1ccc([C@@H](O)c2cc(-c3ncnc4cc(N5CCOCC5)ccc34)c(F)cc2Cl)nn1` — result for “asthenia TEAE incidence”: 0% (locally advanced rectal cancer patients; 100 mg, added: capecitabine and radiotherapy).
`Cc1ccc([C@@H]2O[C@H](CO)[C@@H](O)[C@H](O)[C@H]2O)cc1Cc1ccc(-c2ccc(F)cc2)s1`: “urinary calcium excretion change” -25.6 mg (Japanese type 2 diabetes patients; 25 mg, day 4, 24 h urine collection; baseline: baseline).
`OC[C@H]1O[C@@H](c2ccc(Cl)c(Cc3ccc(O[C@H]4CCOC4)cc3)c2)[C@H](O)[C@@H](O)[C@@H]1O`: “change in eGFR” 0.11 mL/min/1.73 m² (Japanese type 1 diabetes patients, blood; 10 mg, day 28; baseline: baseline).
The asthenia/fatigue incidence of `CNCc1ccc(-c2[nH]c3cc(F)cc4c3c2CCNC4=O)cc1` is reported as 0% (patients; oral, 600 mg twice daily, grade 5).
`C[C@H]1C=C(Cc2ccccc2)C(=O)O1` gave a Freundlich KF of 1.8 mL/g (light clay soil; pH 7.3, OC 5.6%).
`O=C1NCCc2nc(OCc3cccc(F)c3)ccc21`: “corneal reflex loss score” 0 (modified Irwin test; Sprague-Dawley rat, male; oral, 100 mg/kg, 4 h; higher = stronger effect).
`C[C@H](O)c1cc(C(=O)N[C@@H](C)Cn2ccc(-c3ccc(C#N)c(Cl)c3)n2)n[nH]1` gave an AUC(0-tlast) of 10000 ng·h/mL (human, fasted, plasma; oral tablet, 300 mg, geometric mean).
The median Tmax of `COc1ncc(-c2nc3c(n2C(C)C)[C@H](c2ccc(Cl)cc2)N(c2cc(Cl)cn(C)c2=O)C3=O)c(OC)n1` is reported as 3.5 h (human patients, plasma; oral, 50 mg, high-dose arm, cycle 2 day 1).
For `CNc1ccc(-c2nc3ccc(O)cc3s2)cc1` [carbon-11 labelled], the SUV was 1.13 ± 0.351 (microPET/CT imaging; B6SJL mouse, normal, heart; intravenous, 5 min).
`CC(C)c1nc(N(C)S(C)(=O)=O)nc(-c2ccc(F)cc2)c1/C=C/[C@@H](O)C[C@@H](O)CC(=O)O` — result for “subjects with adverse event”: 0% (refers to: respiratory, thoracic, mediastinal disorders; healthy men; oral, dose not given, 8 days, treatment-emergent, crossover trial).
